Measured values of several laboratories.
pEC50, pIC50: −log10 of the molar value.

For Cc1cn([C@H]2C[C@H](N=[N+]=[N-])[C@@H](CO)O2)c(=O)[nH]c1=O, the pIC50 was 3.94 (MT4; cell growth or viability).
For COc1cc(/C=C(\C#N)C(=O)c2ccc(O)c(O)c2)cc(I)c1O, the pIC50 was 4.79 (HEK293 expressing MOR; cAMP overshoot, inhibitor, HTRF cAMP; added: morphine then naloxone).
For C=CC=C[C@@H]1CC2=CC(=O)CC[C@]2(C)[C@H]2CC[C@]3(C)[C@@H](O)CC[C@H]3[C@H]12, the pIC50 was 4.54 (DU-145; cell growth or viability, MTT; 48 h).
CC(N)Cc1c[nH]c2ccc(OCc3cccs3)cc12 (stereo not drawn) has a pEC50 of 4.95 (HepG2; phospholipidosis induction, inducer, high-content imaging; 24 h, primary screen).
The pIC50 of C[C@H](NCCc1ccc(O)cc1)C(=O)c1ccc(OCc2ccccc2)cc1 is reported as 6.84 (SK-BR-3; cell viability, MTT; 72 h).
C#C[C@@]1(O)[C@@H](CO)O[C@@H](n2cc(I)c3c(N)ncnc32)[C@@H]1O has a GI50 of 0.05 µM (HL-60; cell growth or viability, SRB; 48 h).
Brc1c(Br)c(Br)c2n[nH]nc2c1Br gave an efficacy of 54% (HEK293 expressing MOR; morphine-induced cAMP overshoot, HTRF cAMP; 1 µM, added: NKH 477 25 nM; relative to: morphine control).
CC(C)[C@@H]1NC(=O)[C@@H]2CSSC[C@H](NC(=O)[C@@H](N)CCCCN)C(=O)N[C@@H](CCCNC(=N)N)C(=O)N[C@@H](CCC(=O)O)C(=O)N[C@H]3CSSC[C@H](NC(=O)[C@H](CCCCN)NC(=O)CNC(=O)[C@H](CC(N)=O)NC1=O)C(=O)N[C@@H](C(C)C)C(=O)N[C@H](C(=O)N1CCC[C@H]1C(=O)N[C@@H](C)C(=O)O)CSSC[C@H](NC(=O)[C@H](CO)NC(=O)[C@@H]1CCCN1C(=O)[C@H](CO)NC(=O)[C@H]([C@@H](C)O)NC(=O)[C@H](CC(N)=O)NC(=O)CNC3=O)C(=O)N[C@@H](Cc1ccc(O)cc1)C(=O)N[C@@H](Cc1ccccc1)C(=O)N[C@@H](CO)C(=O)NCC(=O)N[C@@H](CC(N)=O)C(=O)N2 gave a CD40L expression of ~47% (human CD4 effector memory T cells; flow cytometry; 1.5 µM, 30 min pre-incubation, added: anti-CD3 for 24 h; relative to: stimulated untreated).
The Emax of Oc1ccc2c3c1O[C@H]1c4oc5ccccc5c4C[C@@]4(O)[C@@H](C2)N(CC2CC2)CC[C@]314 is reported as 128% (HEK293 expressing MOR; morphine-induced cAMP overshoot, HTRF cAMP; 1 µM, added: NKH 477 25 nM; relative to: morphine control).
O=C(/C=C/CCl)O[C@H]1COC(=O)C1 has a pIC50 of 4.41 (RAW264.7; NO release, inhibitor; LPS-stimulated).
The efficacy of Cl.c1ccc(CN2CCC3(CCCc4ccccc43)CC2)cc1 is reported as 138% (HEK293 expressing MOR; morphine-induced cAMP overshoot, HTRF cAMP; 1 µM, added: NKH 477 25 nM; relative to: morphine control).
With CCCCOc1ccc(Nc2cn(C3C=CC(O)C3)c(=O)n(CCCn3c(=O)c(C)cn(C4CC(N=[N+]=[N-])C(CO)O4)c3=O)c2=O)cc1 (stereo not drawn) the pIC50 was 4.76 (MT4; cell growth or viability).
